# Results pooled from the literature.
# Each line is one published result; not all experiments were run side by side. “And” joins repeats or separate records; there may be more than shown. ± gives the spread as reported.
# UniProt P27361, sequence (whole entry, looked up): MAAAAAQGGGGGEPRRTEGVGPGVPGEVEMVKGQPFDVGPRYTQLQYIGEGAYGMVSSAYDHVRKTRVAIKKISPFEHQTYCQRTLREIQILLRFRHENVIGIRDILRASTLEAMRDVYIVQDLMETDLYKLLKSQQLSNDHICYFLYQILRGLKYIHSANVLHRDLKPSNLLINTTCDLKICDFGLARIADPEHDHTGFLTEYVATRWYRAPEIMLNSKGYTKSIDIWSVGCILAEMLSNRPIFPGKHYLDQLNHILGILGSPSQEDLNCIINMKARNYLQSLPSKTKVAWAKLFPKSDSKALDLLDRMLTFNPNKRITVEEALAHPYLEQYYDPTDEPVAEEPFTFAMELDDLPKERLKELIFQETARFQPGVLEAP
# UniProt P00942, sequence (whole entry, unmodified, looked up): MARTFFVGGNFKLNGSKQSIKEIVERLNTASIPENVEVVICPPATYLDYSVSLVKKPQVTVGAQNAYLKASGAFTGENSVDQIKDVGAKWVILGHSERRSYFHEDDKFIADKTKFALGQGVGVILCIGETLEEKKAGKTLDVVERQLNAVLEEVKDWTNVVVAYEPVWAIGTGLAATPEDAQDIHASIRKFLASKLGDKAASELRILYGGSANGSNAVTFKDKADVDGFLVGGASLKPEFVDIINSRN
# UniProt P24090, sequence (whole entry, looked up): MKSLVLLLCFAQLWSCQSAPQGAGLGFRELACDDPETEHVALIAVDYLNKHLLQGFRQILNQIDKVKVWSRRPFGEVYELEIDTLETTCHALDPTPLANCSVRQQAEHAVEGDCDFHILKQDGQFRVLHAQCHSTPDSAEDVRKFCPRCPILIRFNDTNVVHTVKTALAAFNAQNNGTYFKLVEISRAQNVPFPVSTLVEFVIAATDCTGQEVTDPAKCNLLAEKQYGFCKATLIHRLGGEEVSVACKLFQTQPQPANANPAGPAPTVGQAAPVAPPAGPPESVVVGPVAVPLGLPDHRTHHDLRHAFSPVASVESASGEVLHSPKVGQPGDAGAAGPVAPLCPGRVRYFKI
# UniProt Q16531, sequence (whole entry, looked up): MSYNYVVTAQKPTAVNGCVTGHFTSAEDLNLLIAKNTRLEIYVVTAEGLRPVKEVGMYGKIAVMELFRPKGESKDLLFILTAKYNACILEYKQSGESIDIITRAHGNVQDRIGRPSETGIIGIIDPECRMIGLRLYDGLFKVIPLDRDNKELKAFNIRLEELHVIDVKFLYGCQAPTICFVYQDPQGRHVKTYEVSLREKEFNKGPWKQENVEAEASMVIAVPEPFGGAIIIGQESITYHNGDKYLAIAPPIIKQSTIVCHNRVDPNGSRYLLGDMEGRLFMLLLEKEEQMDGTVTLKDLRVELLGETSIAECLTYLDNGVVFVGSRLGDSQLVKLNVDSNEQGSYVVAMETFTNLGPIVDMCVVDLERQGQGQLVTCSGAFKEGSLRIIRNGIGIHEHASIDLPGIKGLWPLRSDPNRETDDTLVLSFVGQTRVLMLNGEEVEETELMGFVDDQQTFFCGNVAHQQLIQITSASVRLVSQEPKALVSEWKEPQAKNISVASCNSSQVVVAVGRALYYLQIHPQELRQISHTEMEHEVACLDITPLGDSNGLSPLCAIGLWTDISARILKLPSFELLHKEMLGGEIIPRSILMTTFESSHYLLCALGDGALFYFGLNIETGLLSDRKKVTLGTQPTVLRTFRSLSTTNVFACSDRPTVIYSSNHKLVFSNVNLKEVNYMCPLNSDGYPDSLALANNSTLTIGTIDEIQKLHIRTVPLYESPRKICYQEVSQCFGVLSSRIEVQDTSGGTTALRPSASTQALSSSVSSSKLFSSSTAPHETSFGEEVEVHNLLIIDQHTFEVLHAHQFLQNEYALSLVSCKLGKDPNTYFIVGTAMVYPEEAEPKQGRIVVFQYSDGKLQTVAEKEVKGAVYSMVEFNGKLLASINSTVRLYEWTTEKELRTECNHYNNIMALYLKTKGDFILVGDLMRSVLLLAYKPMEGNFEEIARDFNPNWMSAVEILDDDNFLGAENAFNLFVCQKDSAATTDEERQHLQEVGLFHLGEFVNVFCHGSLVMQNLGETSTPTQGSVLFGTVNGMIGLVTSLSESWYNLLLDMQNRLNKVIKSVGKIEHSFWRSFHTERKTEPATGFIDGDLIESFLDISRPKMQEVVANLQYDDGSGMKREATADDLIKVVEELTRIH
# UniProt P25103, sequence (whole entry, looked up): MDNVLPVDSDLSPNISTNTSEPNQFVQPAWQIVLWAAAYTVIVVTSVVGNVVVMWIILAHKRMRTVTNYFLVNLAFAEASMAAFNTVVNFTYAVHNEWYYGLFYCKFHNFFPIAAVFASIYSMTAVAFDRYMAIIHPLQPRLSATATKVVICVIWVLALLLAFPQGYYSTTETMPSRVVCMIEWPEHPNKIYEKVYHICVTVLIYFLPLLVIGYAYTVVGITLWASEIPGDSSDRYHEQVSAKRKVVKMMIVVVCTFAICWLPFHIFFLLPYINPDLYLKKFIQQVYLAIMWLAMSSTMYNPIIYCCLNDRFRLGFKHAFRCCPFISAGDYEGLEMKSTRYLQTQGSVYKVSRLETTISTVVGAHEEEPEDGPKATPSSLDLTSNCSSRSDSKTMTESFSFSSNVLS
# UniProt P45985, sequence (whole entry, looked up): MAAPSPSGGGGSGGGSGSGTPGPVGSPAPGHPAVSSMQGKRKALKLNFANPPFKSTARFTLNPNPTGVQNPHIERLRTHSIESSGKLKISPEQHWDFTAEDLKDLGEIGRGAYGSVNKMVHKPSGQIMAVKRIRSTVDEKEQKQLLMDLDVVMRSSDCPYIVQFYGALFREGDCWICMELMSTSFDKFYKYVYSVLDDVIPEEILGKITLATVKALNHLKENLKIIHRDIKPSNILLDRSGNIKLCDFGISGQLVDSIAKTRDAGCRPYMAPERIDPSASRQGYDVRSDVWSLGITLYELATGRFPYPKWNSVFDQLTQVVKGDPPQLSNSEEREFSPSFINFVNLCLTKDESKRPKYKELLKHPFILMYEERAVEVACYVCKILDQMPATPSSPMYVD
# UniProt P0DW57, sequence (whole entry, looked up): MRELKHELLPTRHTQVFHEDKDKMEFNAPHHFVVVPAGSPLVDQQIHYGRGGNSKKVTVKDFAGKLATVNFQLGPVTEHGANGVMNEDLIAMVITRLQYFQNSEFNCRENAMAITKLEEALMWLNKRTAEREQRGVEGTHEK
# UniProt O15164, sequence (whole entry, looked up): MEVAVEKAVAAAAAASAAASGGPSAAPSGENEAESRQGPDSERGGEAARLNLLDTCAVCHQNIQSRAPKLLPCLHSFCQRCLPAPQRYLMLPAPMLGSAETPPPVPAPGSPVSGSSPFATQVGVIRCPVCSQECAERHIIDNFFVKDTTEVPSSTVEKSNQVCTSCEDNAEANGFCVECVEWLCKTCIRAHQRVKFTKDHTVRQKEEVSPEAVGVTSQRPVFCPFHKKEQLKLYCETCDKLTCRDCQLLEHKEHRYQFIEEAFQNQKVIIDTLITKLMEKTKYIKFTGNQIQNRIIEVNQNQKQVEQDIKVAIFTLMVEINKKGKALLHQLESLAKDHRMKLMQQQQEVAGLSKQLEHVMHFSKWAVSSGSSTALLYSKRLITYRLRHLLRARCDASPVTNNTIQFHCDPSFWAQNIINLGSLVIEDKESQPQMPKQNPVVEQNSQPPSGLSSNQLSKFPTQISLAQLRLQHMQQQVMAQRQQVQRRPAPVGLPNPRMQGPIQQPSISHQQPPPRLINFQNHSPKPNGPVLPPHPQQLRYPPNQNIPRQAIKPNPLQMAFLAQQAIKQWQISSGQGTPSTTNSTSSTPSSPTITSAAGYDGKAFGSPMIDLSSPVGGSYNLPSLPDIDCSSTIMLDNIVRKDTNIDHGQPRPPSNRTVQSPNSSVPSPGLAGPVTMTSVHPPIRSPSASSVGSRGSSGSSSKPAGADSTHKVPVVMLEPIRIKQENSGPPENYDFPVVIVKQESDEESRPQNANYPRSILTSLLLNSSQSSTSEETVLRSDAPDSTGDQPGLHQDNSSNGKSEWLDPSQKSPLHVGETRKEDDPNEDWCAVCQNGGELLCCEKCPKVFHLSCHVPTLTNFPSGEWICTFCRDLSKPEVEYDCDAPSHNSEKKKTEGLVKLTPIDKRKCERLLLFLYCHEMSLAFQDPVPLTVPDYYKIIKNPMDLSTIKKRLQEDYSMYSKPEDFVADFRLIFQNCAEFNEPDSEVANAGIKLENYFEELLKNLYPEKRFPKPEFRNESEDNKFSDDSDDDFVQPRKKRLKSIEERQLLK
# UniProt P50052, sequence (whole entry, looked up): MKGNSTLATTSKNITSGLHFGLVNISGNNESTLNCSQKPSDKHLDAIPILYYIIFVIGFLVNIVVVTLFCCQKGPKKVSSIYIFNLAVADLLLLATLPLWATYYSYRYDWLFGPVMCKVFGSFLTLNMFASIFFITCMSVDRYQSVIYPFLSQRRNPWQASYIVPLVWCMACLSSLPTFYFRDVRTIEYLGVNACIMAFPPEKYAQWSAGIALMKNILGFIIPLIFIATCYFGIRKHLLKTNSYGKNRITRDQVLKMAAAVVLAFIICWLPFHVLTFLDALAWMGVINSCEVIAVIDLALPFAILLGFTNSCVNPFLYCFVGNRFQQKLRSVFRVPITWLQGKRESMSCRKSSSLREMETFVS
SMILES,target,assay,test system,setting,scale,measurement,value
COC(=O)[C@@]1(O)C[C@H]2O[C@]1(C)n1c3ccccc3c3c4c(c5c6ccccc6n2c5c31)C(=O)NC4,"MAPK3 (Homo sapiens, UniProt P27361)",ADP-Glo,,"500 pM, added: MBP substrate",,kinase activity,104% and 91.6% and 60.2%
O=C[C@H](O)COP(=O)(O)O,"TPI1 (Saccharomyces cerevisiae, UniProt P00942, Y208F)","substrate, GPDH/NADH-coupled",,"pH 5.7, 25 °C",,kcat,~21 s⁻¹
CCCC(=O)CC(=O)N[C@H]1CCOC1=O,"qscR, DNA-bound (Pseudomonas aeruginosa, UniProt G3XD77)","DNA binding, ligand, EMSA",,saturating ligand,,Hill slope,1.8
Cc1cc(C)n2c1C=C1C=CC(CCC(=O)Nc3ccc(OCC(=O)N[C@@H]4C(=O)N5[C@@H]4SC(C)(C)[C@@H]5C(=O)[O-])cc3)=[N+]1[B-]2(F)F.[Na+],"Penicillin-binding protein 2a (pbp2a, Streptococcus pneumoniae, UniProt Q8DNB6)",whole-cell time course,live Streptococcus pneumoniae cells,,,kinact/KI,8500 ± 3500 M⁻¹ s⁻¹
CN1CCN(c2cc(-c3ccncc3)c(-c3ccc4ccccc4c3)nn2)CC1,"TACR1 (Homo sapiens, UniProt P25103)","antagonist, FLIPR",,10 µM,,inhibition,-13.6%
COc1ccc(N2C(=O)N(c3c(C)cccc3Cl)Cc3cnc(Nc4ccc(C5CCN(C)CC5)cc4OC)nc32)nc1,"DCLK1 (Homo sapiens, UniProt O15075)","kinase activity, inhibitor",,"0.5 µM, DCAMKL1",,inhibition,1%
CC12CCC(CC1)C(C)(C)O2,"1,8-cineole 2-endo-monooxygenase (cinA, Citrobacter braakii, UniProt Q8VQF6)",ITC,,"25 °C, wild-type protein",,TΔS,13.7 ± 0.43 kcal/mol
O=C(Nc1cnccc1Cl)N1CCN(Cc2ccc3c(c2)OC(F)(F)O3)CC1,"Alpha-2-HS-glycoprotein (Ahsg, Rattus norvegicus, UniProt P24090)",competitive ABPP with azido-FP probe,rat brain soluble fraction,"1 µM, unit not given",baseline: DMSO,probe labelling,-1
CN(CC(=O)O)C(=N)NP(=O)(O)O,"CKMT1A (Homo sapiens, UniProt P12532, H99K)","substrate, Kinase-Glo luminescence",,"pH 7.0, reverse reaction, H61K mutant, added: second substrate in excess",,Km,3400 ± 200 µM
Nc1ncc(-c2nc(N3CCOCC3)nc(N3CCOCC3)n2)c(C(F)F)n1,"ALK (Homo sapiens, UniProt Q9UM73, C1156Y)",KINOMEscan,,10 µM,,remaining binding,32%
C[C@H]1CN(c2n[nH]c3nc(N[C@H]4CC[C@H](NS(=O)(=O)CCC(F)(F)F)CC4)ncc23)CCO1,"DDB1 (Homo sapiens, UniProt Q16531)","inhibitor, Kinobeads competition profiling",,20 µM,baseline: vehicle,relative abundance,1.21
O=C(O)c1ccc(CN2C(=O)CN(C(=O)c3ccco3)c3cc(-c4ccccc4)c(Oc4ccc(C(=O)O)cc4)cc32)cc1,"GUCY1B1, with alpha-1 subunit (Homo sapiens, UniProt Q02153)",purified recombinant enzyme,,"10 µM, wild-type α1/β1",,sGC activity,271 ± 114 nmol cGMP/min/mg
Nc1ncnc2c1ncn2[C@@H]1O[C@@H]2COP(=O)(O)O[C@H]3[C@@H](O)[C@H](n4cnc5c(N)ncnc54)O[C@@H]3COP(=O)(O)O[C@H]3[C@@H](O)[C@H](n4cnc5c(N)ncnc54)O[C@@H]3COP(=O)(O)O[C@H]2[C@H]1O,"Thoeris anti-defense 1 (tad1, Bacillus phage SBSphiJ7, UniProt P0DW57)",native gel and ITC,,concentration not given,,binding,binds
COc1ncccc1-c1cnn2ccc(N3CCN(C(=O)OC(C)C)CC3)nc12,"Ribosomal protein S6 kinase alpha-4, N-terminal kinase domain (RPS6KA4, Homo sapiens, UniProt O75676)",KINOMEscan binding,,1 µM,baseline: untreated control,remaining binding,100%
COc1cc(N)c(Cl)cc1C(=O)NC1CN2CCC1CC2 (stereo not drawn),"GPR17 (Homo sapiens, UniProt Q13304)","β-arrestin recruitment, TANGO luminescence",,concentration not given,baseline: basal luminescence,log2 fold change,-0.02
C[N+](C)(C)CCOS(=O)(=O)[O-],"uncharacterized protein (Pelagibacter ubique, UniProt Q4FMG4)",differential scanning fluorimetry,Candidatus Pelagibacter ubique,in-house screen,,thermal shift,3.47 °C
Cc1nn(C)cc1-c1nc2c(N3CCN(Cc4ccc(Cl)cc4)CC3)c(Cl)cnc2[nH]1,"MAP2K4 (Homo sapiens, UniProt P45985)",KINOMEscan,,1 µM,baseline: DMSO control,remaining binding,100%
CCOC(=O)CC(SP(=O)(OC)OC)C(=O)OCC (stereo not drawn),"uncharacterized protein (Anopheles coluzzii, UniProt A0A6E8VQK1)","enzyme activity, inhibitor",Sf9 cell homogenate,"34.4 µM, 0.1667 h, added: α-naphthyl acetate substrate",baseline: no inhibitor,remaining activity,2.29%
CCN(CC)CCCC[C@H](NC(=O)[C@H](CC(C)C)NC(=O)[C@H](C)NC(=O)[C@H](Cc1ccccc1)NC(=O)c1ccc(C(C)(C)C)cc1)C(=O)N[C@@H](CO)C(=O)OC,"Transcription intermediary factor 1-alpha, PHD-bromodomain (TRIM24, Homo sapiens, UniProt O15164)","thermal stabilisation, thermal shift",,25 µM,"baseline: protein without compound, higher = stronger binding",delta Tm,0.49 °C
CCOC(=O)COc1ccc2c(=O)c3ccccc3oc2c1,"ache (Electrophorus electricus, UniProt O42275)",enzyme activity,,"3.36 µM, added: substrate 0.43 mM",higher = faster reaction,reaction velocity,0.0005 a.u.
O=C(c1ccc(Cl)cc1)N1CCN2C(=O)N(OC(=O)N3CCOc4ccccc43)C(=O)C2C1 (stereo not drawn),"PREPL (Homo sapiens, UniProt Q4J6C6)",MS-based ABPP,SW-620 conditioned medium,"10 µM, 1 h, 37 °C","baseline: compound over DMSO, lower = more inhibition",median protein ratio,1.1
CN(C(=O)n1cnc(-c2ccc[n+]([O-])c2)c1)C1CCCCC1,"AGTR2 (Homo sapiens, UniProt P50052)","radioligand binding, inhibitor",,50 µM,,inhibition,-5%
Clc1cc2c(cc1Cl)Oc1cc(Cl)c(Cl)cc1O2,"Uncharacterized protein (Takifugu rubripes, UniProt Q4JHL5)","reporter gene, agonist, dual-luciferase",COS-7,24 h,baseline: top over bottom,maximal fold induction,2.3 ± 0.2
CN(C)C1(CNC(=O)c2ccc3c(c2)CCN3C(=O)c2ccccc2)CCOCC1,"Sodium- and chloride-dependent glycine transporter 2 (Homo sapiens, UniProt Q9Y345, W215F)","inhibitor, two-electrode voltage clamp","Xenopus oocytes, W215F mutant",,baseline: wild type,potency decrease,> 18 fold
[2H]c1c([2H])c([C@]2([2H])CCCN2C(=O)C(C)(C)Oc2ccc3cn[nH]c3c2)c([2H])c([2H])c1C([2H])([2H])[2H],"CSNK1G3 (Homo sapiens, UniProt Q9Y6M4)",KINOMEscan,,1 µM,baseline: DMSO control,remaining binding,64%
Cc1ncsc1-c1ccc(CNC(=O)[C@@H]2C[C@@H](O)CN2C(=O)[C@@H](NC(=O)COCCOCCOCCNC(=O)C[C@@H]2N=C(c3ccc(Cl)cc3)c3c(sc(C)c3C)-n3c(C)nnc32)C(C)(C)C)cc1,VHL-ElonginB-ElonginC complex human,"ternary complex formation, fluorescence polarization",,added: SMARCA2 bromodomain,,cooperativity factor,0.7
CC(=O)SCC[N+](C)(C)C,"cholinesterase, Homarus americanus muscle","enzyme activity, substrate, Ellman",sarcoplasmic reticulum fraction,pH 7.4,,Km,30 µM
